Measured values collected from several papers.
Protocols differ between the studies behind these lines.

Compound	test system	setting	scale	remaining compound
CC(C)(C)[C@H](NC(=O)c1ccc(Oc2ccc(C(=O)N[C@H]3CCCC[C@@H]3O)cc2)cc1)C(=O)NCCN1CCCC1	mouse liver microsomes	1 µM, 60 min, pH 7.4, added: with cofactors	–	75.8%
[2H]C1([2H])CC[C@@H](C[C@@H](C#N)NC(=O)[C@@H]2[C@@H]3[C@H](CN2C(=O)[C@@H](NC(=O)C(F)F)C(C)(C)C)C3(C)C)C(=O)N1	human liver microsomes	60 min, added: NADPH	–	60.1%
CN(Cc1cc(C2CC2)on1)C(=O)c1cccc(-c2ccc(F)cc2)c1	human liver microsomes	2 µM, 5 min, pH 7.5, added: 1-aminobenzotriazole	–	95.8%
C[C@](C(=O)NC1CCC(F)(F)CC1)(c1cncnc1)N(C(=O)[C@H](F)Cl)c1ccc(OC(F)(F)F)cc1	mouse liver microsomes	concentration not given, 0.08333 h, pH 7.4	–	76.1%
CCCCN1C(=O)c2cccc3c(N4CC[N+](C)(C5OC(C(=O)O)C(O)C(O)C5O)CC4)ccc(c23)C1=O (stereo not drawn)	human liver microsomes	3.19 nM, 48 h, 4 °C	–	97.5%
O=C(NC1CCC(F)(F)CC1)C(c1cncnc1)N(C(=O)C(F)Cl)c1ccc(-c2cncs2)cc1 (stereo not drawn)	human liver microsomes	concentration not given, 1 h, pH 7.4	–	40.8%
[2H]C(Cc1c[nH]c2ccccc12)(Nc1ccccc1)C(=O)O (stereo not drawn)	human liver microsomes	1.5 µM, 180 min, pH 7.4, mean of replicates	relative to: 0 min	75%
O=C(NC1CCC(F)(F)CC1)C(c1cncnc1)N(C(=O)C(F)Cl)c1ccc(OC(F)(F)F)cc1 (stereo not drawn)	human liver microsomes	concentration not given, 0.08333 h, pH 7.4	–	102%
Cc1cc(C)nc(NC(=S)N2CCN(c3ccc(C(F)(F)F)cn3)CC2)c1	aqueous buffer with 500 µM DTT	48 h	–	> 95%
